Results from different studies.
± gives the spread as reported.
preS1 2-48: preS1 fragment, N-myristoyl, TAMRA label (hepatitis B virus)
Sequence of UniProt P02770 (whole entry, looked up): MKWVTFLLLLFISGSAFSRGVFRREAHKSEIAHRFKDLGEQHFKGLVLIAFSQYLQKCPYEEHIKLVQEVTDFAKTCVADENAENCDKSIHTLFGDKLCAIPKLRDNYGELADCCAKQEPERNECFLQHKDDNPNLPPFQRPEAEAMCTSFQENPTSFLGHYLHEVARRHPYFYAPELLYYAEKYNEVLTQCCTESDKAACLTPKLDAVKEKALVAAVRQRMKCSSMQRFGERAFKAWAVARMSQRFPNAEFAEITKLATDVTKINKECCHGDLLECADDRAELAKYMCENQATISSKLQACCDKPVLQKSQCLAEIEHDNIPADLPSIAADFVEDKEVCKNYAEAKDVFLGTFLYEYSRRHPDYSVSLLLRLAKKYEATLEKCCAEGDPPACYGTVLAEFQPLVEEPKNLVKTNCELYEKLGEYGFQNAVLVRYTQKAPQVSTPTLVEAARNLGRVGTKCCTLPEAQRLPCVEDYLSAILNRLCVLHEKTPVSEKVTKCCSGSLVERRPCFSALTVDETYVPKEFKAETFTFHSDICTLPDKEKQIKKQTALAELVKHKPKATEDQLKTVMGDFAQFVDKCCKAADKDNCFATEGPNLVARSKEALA

| Molecule | target or system | test | system | setting | how to read | quantity | result |
| --- | --- | --- | --- | --- | --- | --- | --- |
| NTCP I29V/Q84R/N86K/R158G/L161I (Macaca fascicularis) | preS1 2-48 | preS1-TAMRA fluorescence | HepG2 | read off a plot | baseline: human NTCP WT, higher = more preS1 binding | binding relative to WT | 1.1 fold |
| CCOP(=O)(OCC)Oc1cc(C)nc(C(C)C)n1 | Albumin (Alb, Rattus norvegicus, UniProt P02770) | cell-free assay |  |  |  | IC50 | ~2 µM |
| NTCP N86K (Macaca fascicularis) | preS1 2-48 | preS1-TAMRA fluorescence | HepG2 | read off a plot | baseline: human NTCP WT, higher = more preS1 binding | binding relative to WT | 0.11 fold |
| CCC1(CO)NC2CC3(C(=O)N(OC)c4ccccc43)C3CC1C2CO3 (centres unmarked) |  |  | Kunming mice both sexes | intraperitoneal, 7 days |  | LD50 | 0.54 mg/kg |
| CC(C)C[C@@H]1NC(=O)[C@H](CCCNC(=N)N)NC(=O)[C@@H]2CCCN2C(=O)[C@@H]2CSSC[C@H](NC(=O)CNC(=O)[C@@H]3CCCN3C(=O)[C@H](CCCCN)NC(=O)[C@H](CC(=O)O)NC(=O)[C@@H](NC(=O)CN)C(C)C)C(=O)N[C@@H](CCCNC(=N)N)C(=O)N[C@@H](Cc3ccc(O)cc3)C(=O)N[C@@H](CC(C)C)C(=O)N[C@@H](Cc3ccccc3)C(=O)NCC(=O)NCC(=O)N[C@H]3CSSC[C@H](NC(=O)CNC1=O)C(=O)N[C@@H](CCCCN)C(=O)NCC(=O)N[C@@H](CCCCN)C(=O)NCC(=O)N[C@@H](Cc1c[nH]cn1)C(=O)N[C@@H](CC(=O)O)C(=O)N[C@@H](Cc1ccc(O)cc1)C(=O)N[C@H](C(=O)N[C@@H](C)C(=O)N[C@@H](Cc1c[nH]c4ccccc14)C(=O)N[C@@H](CC(=O)O)C(=O)NCC(=O)N[C@H](C(=O)N[C@@H](Cc1ccccc1)C(=O)N[C@@H](CO)C(=O)N[C@@H](CC(=O)O)C(=O)O)[C@@H](C)O)CSSC[C@H](NC(=O)[C@H](CC(=O)O)NC(=O)[C@H](CC(=O)O)NC(=O)[C@H](CC(=O)O)NC(=O)[C@H](CO)NC(=O)[C@H](CCCCN)NC3=O)C(=O)N2 |  | electronic von Frey | adult mice | intraplantar, 600 pmol/paw |  | paw withdrawal threshold | 1 ± 0.1 g |

Repeated from above:
| Molecule | target or system | test | system | setting | how to read | quantity | result |
| --- | --- | --- | --- | --- | --- | --- | --- |
| NTCP I29V/Q84R/N86K/R158G/L161I (Macaca fascicularis) | preS1 2-48 | preS1-TAMRA fluorescence | HepG2 | read off a plot | baseline: human NTCP WT, higher = more preS1 binding | binding relative to WT | 1.1 fold |
